Published values gathered from unrelated publications.
Numbered parts are unrelated; each lists some results of a single study. Changes are numbered by the printed parent chain.
UniProt Q9C0B0, sequence (30-357, looked up): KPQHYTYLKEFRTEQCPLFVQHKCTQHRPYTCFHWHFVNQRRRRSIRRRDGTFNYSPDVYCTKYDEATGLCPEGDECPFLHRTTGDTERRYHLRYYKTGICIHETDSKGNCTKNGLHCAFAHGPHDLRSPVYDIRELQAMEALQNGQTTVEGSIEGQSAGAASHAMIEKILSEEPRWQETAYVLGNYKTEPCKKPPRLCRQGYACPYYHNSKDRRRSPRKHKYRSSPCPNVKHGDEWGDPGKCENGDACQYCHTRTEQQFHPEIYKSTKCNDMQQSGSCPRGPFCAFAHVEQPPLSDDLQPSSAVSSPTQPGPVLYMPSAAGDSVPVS

Series 1
Target: CCNB2, cyclin fold, Cln2 fusion (human)
Technique: yeast growth competition, sequencing
Medium: yeast
Setting: weak parent motif
Reference: not given
Reading: higher = stronger binding
Parent: REV3L docking peptide (human); PPVIIKYIIINRF
Variant | normalised enrichment score
PAVIIKYIIINRF [P2A] | 0.951
PPVIIKYIIIARF [N11A] | 0.905
PPVIIAYIIINRF [K6A] | 0.417
PPVAIKYIIINRF [I4A] | -0.0422
PPVIAKYIIINRF [I5A] | 0.279
PPVIIKYIIINAF [R12A] | 0.604

Series 2
Target: ABI1, truncated, D143A, DHFR fusion (Arabidopsis thaliana)
Technique: DHFR PCA, deep sequencing
Medium: yeast
Setting: methotrexate growth selection, single substitutions
With: (+)-ABA 710 µM
Reference: wild-type fitted maximum
Reading: higher = stronger binding
Parent: PYL1, truncated, DHFR fusion (Arabidopsis thaliana); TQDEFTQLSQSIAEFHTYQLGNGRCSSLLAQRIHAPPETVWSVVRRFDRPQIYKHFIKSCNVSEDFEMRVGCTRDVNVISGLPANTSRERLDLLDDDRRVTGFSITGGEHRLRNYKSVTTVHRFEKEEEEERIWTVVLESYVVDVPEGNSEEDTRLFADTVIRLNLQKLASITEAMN
Variant | relative binding score
V121T | 71.1%
D92Y | 81.9%
R113L | 102%
V161G | -2.88%
T106P | 49.6%
R24V | 95.8%
H55F | 98.2%
S87E | 10.3%
R155G | 75%
T106F | 111%
F124M | 113%
Q51N | 85.5%
P146C | 83.9%
R111G | 68.4%
M176L | 100%
S104N | 57.9%
T86F | 95.6%

Series 3
Target: Sal-like protein 4, full length isoform B (SALL4, Homo sapiens, UniProt Q9UJQ4-2, residues 1-616)
Technique: universal PBM
Molecule type: double-stranded DNA, one strand shown
Medium: in vitro
Concentration: not given
Setting: 8-mer, flanks averaged, mean of replicates
Reading: higher = stronger binding
Oligonucleotide | E-score
CTGTGAAG | -0.0565
AGGCACTG | -0.138
CCTATGTA | 0.226
AATGTCAA | 0.206
AAACCAGG | -0.135
AAGCGTGC | -0.0286
ACCGAGTA | -0.116
CGCGCAAA | 0.0045
CGCTAGCG | -0.19
AGTAAATC | 0.139
GGTAAGGA | -0.131
AATGCGCT | -0.0586
ATGGCTAG | 0.0226
AATACGGG | -0.00447
ACTAATGA | 0.245
CCGCCGGA | -0.256
CTCTGTGA | -0.0813
CAAAGTCA | 0.0679
GCTAGTAC | -0.0115
ACACGAGA | -0.116
ATGGATTC | -0.0343
TACGGAGA | -0.0195
GATTCTCA | 0.1
CTGTCTTC | -0.112
ACCCCTAC | -0.118

Series 4
Target: Phosphate system positive regulatory protein PHO4, full length, GST-tagged (PHO4, Saccharomyces cerevisiae, UniProt P07270, residues 1-312)
Technique: competition protein-binding microarray
Molecule type: double-stranded DNA, one strand shown
Medium: in vitro
Concentration: 2 µM
Setting: whole 60-bp probe, lowest competitor level
With: Cbf1 competitor, 0.05 µM
Reading: higher = stronger binding
Target sequence (chain): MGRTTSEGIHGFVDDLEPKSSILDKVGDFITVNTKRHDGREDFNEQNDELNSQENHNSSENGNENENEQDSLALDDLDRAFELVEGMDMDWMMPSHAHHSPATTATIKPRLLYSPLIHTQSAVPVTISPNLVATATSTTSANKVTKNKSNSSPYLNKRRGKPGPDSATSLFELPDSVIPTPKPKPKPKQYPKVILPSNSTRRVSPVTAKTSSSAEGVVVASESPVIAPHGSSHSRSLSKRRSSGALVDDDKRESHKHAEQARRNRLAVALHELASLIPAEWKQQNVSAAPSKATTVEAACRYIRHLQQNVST
Oligonucleotide | fluorescence intensity
AATTAGAACCCATGTCCCGTGGAAGCGTTTTAAAAGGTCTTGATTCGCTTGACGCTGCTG | 7740 a.u.
CCATTGTACGGTTCGTACGTGGGTACAATGAATTACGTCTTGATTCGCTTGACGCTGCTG | 6900 a.u.
AGTCGTCGTCCGGGACATAGGATCAGGAATCACAATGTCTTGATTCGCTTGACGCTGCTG | 3320 a.u.
CTAACGAAGGTTTGGCGCGTGGGTGACAAGCCAAGTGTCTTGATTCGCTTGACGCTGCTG | 10300 a.u.
ACCCGGTGCAGGTTCGTCGTGCCGAAAGACTCACCAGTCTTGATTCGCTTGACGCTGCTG | 5620 a.u.
CGGGGTTAAGTTTGAAGCGTGGGTGGCTTGCAGCAGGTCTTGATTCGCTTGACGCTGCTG | 8120 a.u.
ACACTAGAATTGACTCTCGTGGCCGTAATACGAACAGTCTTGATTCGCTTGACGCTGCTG | 9360 a.u.
GTATAAAAAGAGTGGCATGTGAACTGCCTACCGTAAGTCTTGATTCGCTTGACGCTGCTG | 7130 a.u.
AAGTTCCACAAGGTGCTCGTGTTGACACTGAAAAGTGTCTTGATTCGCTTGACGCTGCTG | 11100 a.u.
TTATGGATAGAGTCCCACGCTGATATAAACACCATAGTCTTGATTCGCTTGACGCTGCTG | 7490 a.u.
TATGTAAAAAATCCGCACGTTGCCAGATACATACCGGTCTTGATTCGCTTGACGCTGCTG | 12300 a.u.
AGACCAGTGTATATTCAGCTGATCCCAATTATCATTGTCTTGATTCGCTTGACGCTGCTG | 3090 a.u.
ACCCGTAGTGGATGTGGCGTGCGGATGGGACTCGACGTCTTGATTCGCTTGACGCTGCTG | 7790 a.u.
CGACCCAAATAGTTAAACGTGTGGATTATGGGTGCAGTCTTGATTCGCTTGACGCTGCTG | 10800 a.u.
CTAACGAAGGTTTGCTAGGTGGGTGACAAGCCAAGTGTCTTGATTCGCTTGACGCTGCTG | 3950 a.u.
CTTTCCCGATCTTGGTACGTGGGTGTAGCACATTTGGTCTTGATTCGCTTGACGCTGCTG | 8060 a.u.
GTCTTGTCTCATTGTCCGGTGGGTGTCCCCACTTCAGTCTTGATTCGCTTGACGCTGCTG | 4780 a.u.
CTTCTGTAAATTTGGTAAGTGGGTGGACGCGCCCCGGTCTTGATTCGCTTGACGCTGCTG | 4650 a.u.

Series 5
Target: Fragile X messenger ribonucleoprotein 1, C-terminal low-complexity region (Fmr1, Mus musculus, UniProt P35922)
Technique: RNA Bind-n-Seq
Molecule type: RNA
Medium: in vitro
Concentration: 200 nM
Setting: whole 134-nt RNA, ends assumed
With: 150 mM LiCl
Reference: input library
Reading: higher = stronger binding
All molecules: 7-deaza-guanosine replaces G
Oligonucleotide | log2 enrichment
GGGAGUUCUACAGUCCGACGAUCUCCUCAAGUCCUGUGCUACACAUCGUAUGUACCGAAUCGGGUGGUGGUGGGAAAGUAUUAUGUUACGCCGUUCGGAUCUGCACUUCCAGCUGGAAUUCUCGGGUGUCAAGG | 0.0771
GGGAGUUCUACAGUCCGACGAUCAGUAGCUAUGGUCAACAAAGCAGCUAUGGGCAGCAGCCUCCCACUAGUUACCCACCCCAAACUGGAUCCUACAGCCAAGCUCCAAGUCAAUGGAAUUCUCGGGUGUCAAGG | 1.37
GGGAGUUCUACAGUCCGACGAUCUAACUUUAGAGGAGGAUCUGCUGGAUAUGGCAGUGGACGUGGAUUUGGGGAUGGCUAUAAUGGGUAUGGAGGAGGACCUGGAGGUGGCAAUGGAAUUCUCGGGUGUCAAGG | 0.268
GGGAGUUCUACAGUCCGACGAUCGCAGGAAGUAAAAACAAAUGGAAAUGCUUCGGAUAGUGGCAGGGGUGGGGGUUGCUAAGGAAAGGGUGGGAUGGGAGUGGGUAAAAAGUUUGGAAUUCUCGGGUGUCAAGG | 1.27
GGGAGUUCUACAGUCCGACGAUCCAAGUCCUGUGCUACACAUCGUAUGUACCGAAUCGGUUUUUGGUUUUUGGAAAGGAAAGUAUUAUGUUACGCCGUUCGGAUCUGCACUUCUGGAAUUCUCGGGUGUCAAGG | -1.11
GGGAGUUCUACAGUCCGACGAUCUGGCCCUGGUGGCAUGCGGGGAGGAAGAGGUGGCCUCAUGGAUCGUGGUGGUCCCGGUGGAAUGUUAAGAGGUGGCCGUGGUGGAGACAGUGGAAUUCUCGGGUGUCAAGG | -0.112
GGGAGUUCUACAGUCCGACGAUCAGUCCUGUGCUACACAUCGUAUGUACCGAAUCGGGAAAGGGAAAGGGAAAAAAAGGGAAAGUAUUAUGUUACGCCGUUCGGAUCUGCACUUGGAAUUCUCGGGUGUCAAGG | -0.48
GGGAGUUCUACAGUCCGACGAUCUCCUGUGCUACACAUCGUAUGUACCGAAUCGGGGUUUUUGGGGAAAGGGGUUUUUGGGGAAAGUAUUAUGUUACGCCGUUCGGAUCUGCAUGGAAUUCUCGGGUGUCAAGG | -0.713
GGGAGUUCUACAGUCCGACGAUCCACAGACAACACGCACCCACACAGACACAGAGGGAAGGGGUUGGGAUGGGGACAGGGUGCACAGCAGGGCGGGGUAGGAUCCCAGCCCCUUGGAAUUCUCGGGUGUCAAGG | 1.67
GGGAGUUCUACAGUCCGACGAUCUGCCGUGCCGGGUGGACGGUCUGCUCGCCUGUCUGCGUGACGAAACUGAGGCACAAAGACGCGCUAUGCCAGCGGCGGGUAUAGCAAGGGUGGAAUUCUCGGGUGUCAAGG | -2.67
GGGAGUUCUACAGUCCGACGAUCUGGCCCUGGUGGCAUGCGGGGAGGAAGAGGUGGCGUCAUGGAUCGUGGUGGUCCCGGUGGAAUGUUCAGAGGUGGCCGUGGUGGAGACAGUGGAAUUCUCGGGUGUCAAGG | 1.18

Series 6
Target: UBE2Q1 UBC core domain (UniProt Q7Z7E8)
Technique: yeast two-hybrid
Medium: yeast
Setting: mostly zero background
Reference: not given
Reading: higher = stronger interaction
B1: IRF2BPL RING domain (UniProt Q9H1B7); chain SPMANSGPLCCTICHERLEDTHFVQCPSVPSHKFCFPCSRESIKAQGATGEVYCPSGEKCPLVGSNVP
B2: TRIM8 RING domain (UniProt Q9BZR9); chain WKNCFEEELICPICLHVFVEPVQLPCKHNFCRGCIGEAWAKDSGLVRCPECNQAYNQKPGLE
B3: MID1 RING domain (UniProt O15344); chain METLESELTCPICLELFEDPLLLPCAHSLCFNCAHRILVSHCATNESVESITAFQCPTCRHVITLSQRGL
B4: ZNF598 RING domain (UniProt Q86UK7); chain AAAPERGGGSCVLCCGDLEATALGRCDHPVCYRCSTKMRVLCEQRYCAVCREELRQVVFGK
Construct (chain): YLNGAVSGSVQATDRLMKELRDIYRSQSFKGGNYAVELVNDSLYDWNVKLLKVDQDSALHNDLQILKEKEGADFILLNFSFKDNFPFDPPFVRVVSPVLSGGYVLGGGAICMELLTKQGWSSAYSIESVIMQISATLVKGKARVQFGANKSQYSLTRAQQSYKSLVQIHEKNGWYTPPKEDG
Sequence | lacZ reporter activity
B1 (IRF2BPL RING domain) | 4720
RLTMMWEEVTCPICLDPFVEPVSIECGHSFCQECISQVGKGGGSVCPVCRQRFLLKNLRP (TRIM21 RING domain (UniProt P19474)) | 0
B2 (TRIM8 RING domain) | 0
B3 (MID1 RING domain) | 0
FASPPDSNFVCSVCHGVLKRPARLPCSHIFCKKCILRWLARQKTCPCCRKEVKRKKVVH (RNF151 RING domain (UniProt Q2KHN1)) | 0
QLRRLQEERTCKVCMDKEVSVVFIPCGHLVVCQECAPSLRKCPICRGIIKGTVRTF (BIRC2 RING domain (UniProt Q13490)) | 0
EDEVSDNSAECVVCLSDVRDTLILPCRHLCLCNTCADTLRYQANNCPICRLPFRALLQIR (RNF157 RING domain (UniProt Q96PX1)) | 0
YWAMDSTFELCKICAESNKDVKIEPCGHLLCSCCLAAWQHSDSQTCPFCRCEIKGWEAVS (CBLC RING domain (UniProt Q9ULV8)) | 0
DAIPSLSECQCGICMEILVEPVTLPCNHTLCKPCFQSTVEKASLCCPFCRRRVSSWTRYH (RNF168 RING domain (UniProt Q8IYW5)) | 0
QHHELTSLFECPVCFDYVLPPILQCQAGHLVCNQCRQKLSCCPTCRGALTPSIRNL (SIAH2 RING domain (UniProt O43255)) | 0
B4 (ZNF598 RING domain) | 0

Further values, each from its own experiment
Oligonucleotide | target | assay | test system | conditions | scale | endpoint | result
GGGAGUUCUACAGUCCGACGAUCUGAGGGAGAGAUUUCUGUGCUUUCUCAUAUUUAAUUUGCUGUUUUUAAGAUAUUCCAACCCCGAGUUUUUGAUGGAACUGAUAUAUUGACAGUUCUCACCGAAGUCCUUUUAUAAAGAAUCAACAGAGGAUUGAGCAUCA | RING finger protein unkempt homolog, zinc fingers 1-6, SBP tag (UNK, Homo sapiens, UniProt Q9C0B0, residues 30-357) | RNA Bind-n-Seq | RNA, in vitro | 100 nM, RNA with constant flanks, ends assumed | reference: input RNA pool, higher = stronger binding | bound/input enrichment | 0.688 ratio
